Published values of several laboratories.
Lines come from different studies, so protocols differ. Numbers after ± are the reported error.

With `COc1c(CCC[P+](c2ccccc2)(c2ccccc2)c2ccccc2)cc2c(c1OC)OCO2.[I-]` the TGI was -5.08 log M (SF-295; SRB).
`Oc1cc(Cl)ccc1Oc1ccc(Cl)cc1Cl`: “point of departure” 9.12 µM (HepG2; extracellular flux, refers to: oxygen consumption rate; 1 h, distribution mode 2).
For `O=c1cc(-c2ccc(O)cc2)oc2cc(O)cc(O)c12`, the neurite length was 32.5 to 36.5 µm (SH-SY5Y Aβ-GFP cells, scrambled shRNA; 5 µM).
With `CCN(CC)c1ccc(C=NNC(=O)CSc2nc3ccccc3c(=O)n2Cc2ccc(S(N)(=O)=O)cc2)c(O)c1` the CC50 was over 100 µM (OVCAR-8; NCI five-dose screen).
With `COc1ccc2c(c1)[nH]c1c(C)nccc12` the methylation reduction was 0% (DU-145; bisulfite pyrosequencing, refers to: RASSF1A promoter CpG site 22; concentration not given; reference: vehicle).
`CC(c1ccccc1)(c1ccc(O)cc1)c1ccc(O)cc1`: “G2 phase cells” 17.5 ± 5.58% (HepG2 spheroids; Hoechst flow cytometry; 10 µM, 24 h).
For `Cn1ncc(-c2nc(N[C@H]3CC[C@H](N)CC3)ncc2Cl)c1CC1CC1`, protein level read “decreased” (human AML cell lines; immunoblot, refers to: MYC and MDM2; 100 nM, 24 h).
`Nc1ncc(-c2nc(N3CCOCC3)nc(N3CCOCC3)n2)c(C(F)F)n1` has a GI50 of 0.046 µM (LoVo; 72 h).
With `CN1CCN(C2(CNC3CCN(c4cccc(-c5cc6cc(F)ccc6[nH]5)c4)CC3)CCC2)CC1` the GI50 was 1.8 µM (SF-295).
With `COc1ccc([C@@H](O)c2cc(-c3ncnc4cc(N5CCOCC5)ccc34)c(F)cc2Cl)nn1` the clonogenic survival was 2 ± 0.2% (M12; 1000 nM, with: radiation 2.5 Gy).
With `O=C1NC(=O)N(CCc2ccc(F)cc2)C(=O)/C1=C/C=C/c1ccccc1` the efficacy was 41% (LDR; silenced CMV-GFP reporter derepression, qHTS).
`C[C@]12CC[C@H]3[C@@H](CC[C@]4(O)C[C@@H](O)CC[C@]34C=O)[C@@]1(O)CC[C@@H]2C1=CC(=O)OC1` has a MyBP-C level of 14.6% (MYBPC3 iPSC cardiomyocytes; plate-normalised; concentration not given, 24 h, hit retest).
`Nc1ncnc2c1ncn2[C@@H]1O[C@@H]2COP(=O)(O)O[C@H]3[C@@H](O)[C@H](n4cnc5c(=O)[nH]cnc54)O[C@@H]3COP(=O)(O)O[C@H]2[C@H]1O` has a fold enrichment of 2.29 (HFF-1; RNA sequencing, refers to: Reactome Adaptive Immune System; upregulated pathways; reference: mock).
`COc1ccc([C@H]2c3[nH]c4ccc(Cl)cc4c3CCN2C(=O)Oc2ccc(Cl)cc2)cc1` gave an inhibition of 45% (HUVEC and PBMC co-culture; BioMAP SAg, refers to: MCP-1; 0.1 µM, 24 h, with: TCR ligands).
For `COc1ccc(CCN(C)CCCC(C#N)(c2ccc(OC)c(OC)c2)C(C)C)cc1OC` (stereo not drawn), intracellular [3H]-paclitaxel read “no effect” (KB-3-1; 10 µM).
For `COc1cccc2c1C(=O)c1c(O)c3c(c(O)c1C2=O)C[C@@](O)(C(=O)CO)C[C@@H]3O[C@H]1C[C@H](N)[C@H](O)[C@H](C)O1`, the growth percent was -59.4% (SiHa; sulforhodamine B; 10 µg/mL, 48 h; negative means cell kill).
For `COc1c(C)c2c(c(O)c1C/C=C(\C)CCC(=O)O)C(=O)OC2`, the IC50 was 3.39 µM (J82; cell proliferation; bladder cancer).
`COc1cc(CCC[P+](c2ccccc2)(c2ccccc2)c2ccccc2)c(OC)c2c1OCO2.[I-]` has an LC50 of over -4 log M (OVCAR-8; SRB).
`Cn1cncc1C1=CN(c2ncnc3[nH]cnc23)CCS1` has a CC50 of over 200 µM (RPMI-8226; leukemia).
The GI50 of `CC(C)N1CCC(NC2CCN(c3cccc(-c4cc5cc(F)ccc5[nH]4)c3)CC2)CC1` is reported as 1.84 µM (OVCAR-8).
For `O=C1CCP(c2ccccc2)CC1`, the selectivity index was 0.8 (SW480; MTT; 72 h; reference: IC50 HaCaT over IC50 SW480).
